Measured values gathered from unrelated publications.
Compare with care: the assays were run in different laboratories. Numbers after ± are the reported error.
STING1 H232R: Stimulator of interferon genes protein (STING1, Homo sapiens, UniProt Q86WV6, H232R)
Chain of UniProt Q86WV6 (whole entry, unmodified, looked up): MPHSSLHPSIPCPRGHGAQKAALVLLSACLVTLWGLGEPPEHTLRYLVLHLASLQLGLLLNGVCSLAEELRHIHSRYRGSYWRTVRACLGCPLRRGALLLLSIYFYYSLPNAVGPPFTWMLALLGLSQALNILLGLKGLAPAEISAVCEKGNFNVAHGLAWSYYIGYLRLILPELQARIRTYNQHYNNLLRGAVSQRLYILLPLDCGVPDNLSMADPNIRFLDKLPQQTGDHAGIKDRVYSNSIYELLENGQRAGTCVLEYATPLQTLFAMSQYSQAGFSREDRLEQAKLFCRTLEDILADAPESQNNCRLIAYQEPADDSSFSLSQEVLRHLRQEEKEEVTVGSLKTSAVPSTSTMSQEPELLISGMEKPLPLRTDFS
Chain of UniProt P30530 (whole entry, looked up): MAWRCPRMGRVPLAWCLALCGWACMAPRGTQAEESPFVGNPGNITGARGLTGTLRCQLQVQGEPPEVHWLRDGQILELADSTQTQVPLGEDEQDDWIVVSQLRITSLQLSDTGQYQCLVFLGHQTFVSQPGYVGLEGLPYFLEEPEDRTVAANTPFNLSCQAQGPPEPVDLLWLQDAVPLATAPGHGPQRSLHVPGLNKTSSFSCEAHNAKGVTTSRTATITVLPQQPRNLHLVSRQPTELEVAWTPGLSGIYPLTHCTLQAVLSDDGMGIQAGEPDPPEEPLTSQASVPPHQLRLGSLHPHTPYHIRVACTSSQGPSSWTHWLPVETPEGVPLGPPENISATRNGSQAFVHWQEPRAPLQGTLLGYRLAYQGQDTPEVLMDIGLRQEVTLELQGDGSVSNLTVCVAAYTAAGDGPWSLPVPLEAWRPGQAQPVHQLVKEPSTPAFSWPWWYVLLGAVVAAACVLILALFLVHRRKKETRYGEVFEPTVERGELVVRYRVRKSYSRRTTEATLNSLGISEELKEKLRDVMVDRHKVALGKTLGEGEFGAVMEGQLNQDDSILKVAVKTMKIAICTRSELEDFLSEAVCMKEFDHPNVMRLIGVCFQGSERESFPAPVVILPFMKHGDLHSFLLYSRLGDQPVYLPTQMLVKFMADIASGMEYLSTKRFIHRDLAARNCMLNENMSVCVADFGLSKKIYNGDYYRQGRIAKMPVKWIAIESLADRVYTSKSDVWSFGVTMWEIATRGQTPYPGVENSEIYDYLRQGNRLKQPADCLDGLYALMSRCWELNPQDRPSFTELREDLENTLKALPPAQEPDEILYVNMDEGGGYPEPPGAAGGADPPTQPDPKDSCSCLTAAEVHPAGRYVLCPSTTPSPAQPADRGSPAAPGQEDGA

| SMILES | target or system | test | test system | setting | measurement | value |
| --- | --- | --- | --- | --- | --- | --- |
| Clc1cc2nc(c1)CNCc1cc(Cl)cc(n1)CNC2.[Cu+2] |  | superoxide dismutase-like activity, McCord-Fridovich NBT | cell-free system | pH 7.8, together with: xanthine/xanthine oxidase | IC50 | 517 nM |
| Cc1nn(-c2cccc(N)c2)c(=O)c2cnc(Nc3ccc(N4CCNCC4)cc3)nc12 | Tyrosine-protein kinase receptor UFO (AXL, Homo sapiens, UniProt P30530) | kinase activity, inhibitor, SelectScreen kinase profiling |  |  | IC50 | > 10000 nM |
| O=C(N[C@@H](CCCCNC(=O)c1ccc([N+](=O)[O-])o1)c1nc2ccccc2[nH]1)c1ccc(-c2nccs2)cc1 | STING1 H232R | reporter gene, inhibitor | THP1-Dual KI-hSTING-R232 | 24 h, 1 h preincubation, together with: diABZI 500 nM | EC50 | 10400 nM |
| [Cu+2].c1cc2nc(c1)CNCc1cccc(n1)CNC2 |  | superoxide dismutase-like activity, McCord-Fridovich NBT | cell-free system | pH 7.8, together with: xanthine/xanthine oxidase | IC50 | 1550 nM |
| Cn1cc(C(=O)N[C@@H](CCNC(=O)c2ccc([N+](=O)[O-])o2)c2nc3ccccc3[nH]2)nn1 | STING1 H232R | reporter gene, inhibitor | THP1-Dual KI-hSTING-R232 | 24 h, 1 h preincubation, together with: diABZI 500 nM | EC50 | > 40000 nM |
| CC(C)=CCc1cc(C(=O)/C=C/c2ccc(O)cc2)c(O)cc1O |  | phase I metabolism, substrate | minipig liver microsomes |  | substrate inhibition constant | 41.6 ± 10.1 µM |
| O=C(O)C(Cc1c[nH]cn1)N1C(=O)c2ccc3c4ccc5c6c(ccc(c7ccc(c2c37)C1=O)c64)C(=O)N(CCN1CCCCC1)C5=O (stereo not drawn) | human telomeric G-quadruplex DNA | binding, thiazole orange displacement |  | pH 8 | DC50 | 660 ± 140 nM |
| Ic1cc2nc(c1)CNCc1cc(I)cc(n1)CNC2.[Cu+2] |  | superoxide dismutase-like activity, McCord-Fridovich NBT | cell-free system | pH 7.8, together with: xanthine/xanthine oxidase | IC50 | 352 nM |
| O=C(N[C@@H](CCCCNC(=O)c1ccc([N+](=O)[O-])o1)c1nc2ccccc2[nH]1)c1ccc(-c2ncccn2)cc1 | STING1 H232R | reporter gene, inhibitor | THP1-Dual KI-hSTING-R232 | 24 h, 1 h preincubation, together with: diABZI 500 nM | EC50 | 9500 nM |
